{"data": "Results gathered from unrelated publications", "FGFR3": "Fibroblast growth factor receptor 3 (FGFR3, Homo sapiens, UniProt P22607)", "note": "Compare with care: the assays were run in different laboratories.", "chain of UniProt P22607 (whole entry, unmodified, looked up)": "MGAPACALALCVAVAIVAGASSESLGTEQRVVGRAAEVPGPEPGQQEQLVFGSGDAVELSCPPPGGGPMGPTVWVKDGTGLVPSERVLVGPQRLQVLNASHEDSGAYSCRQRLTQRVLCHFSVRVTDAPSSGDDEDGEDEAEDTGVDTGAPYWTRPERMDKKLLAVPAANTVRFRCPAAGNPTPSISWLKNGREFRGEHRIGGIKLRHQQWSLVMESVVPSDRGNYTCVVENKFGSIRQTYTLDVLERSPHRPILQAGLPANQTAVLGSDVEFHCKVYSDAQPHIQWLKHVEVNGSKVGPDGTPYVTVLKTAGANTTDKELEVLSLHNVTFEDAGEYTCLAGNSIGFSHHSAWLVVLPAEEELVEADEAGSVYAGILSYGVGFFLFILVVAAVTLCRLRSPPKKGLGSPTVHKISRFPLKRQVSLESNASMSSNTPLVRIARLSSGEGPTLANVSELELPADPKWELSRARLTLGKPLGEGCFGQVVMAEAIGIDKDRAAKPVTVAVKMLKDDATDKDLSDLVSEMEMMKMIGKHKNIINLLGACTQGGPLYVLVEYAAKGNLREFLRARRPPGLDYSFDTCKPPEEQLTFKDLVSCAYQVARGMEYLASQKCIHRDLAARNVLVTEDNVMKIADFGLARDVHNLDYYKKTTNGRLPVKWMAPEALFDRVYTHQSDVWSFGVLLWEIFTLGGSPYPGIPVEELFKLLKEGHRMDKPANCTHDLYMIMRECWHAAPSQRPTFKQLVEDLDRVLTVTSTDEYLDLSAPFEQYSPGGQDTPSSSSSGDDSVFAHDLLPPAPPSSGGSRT"}
{"Structure (SMILES)": "CC(C)[C@H]1NC(=O)C[C@H]2/C=C/CCSSC[C@@H](NC1=O)C(=O)N[C@H](Cc1cccc3ccccc13)C(=O)NCC(=O)O2", "target": "FGFR3 (Homo sapiens, UniProt P22607, K650E)", "test": "enzyme activity, inhibitor", "conditions": "10 µM", "quantity": "inhibition", "value": "11.4%"}
{"Structure (SMILES)": "O=C(O)c1ccccc1/C=N/Nc1nc(-c2ccccc2Cl)cs1", "target": "FGFR3", "test": "enzyme activity, inhibitor", "conditions": "1 µM", "quantity": "inhibition", "value": "-25.4%"}
{"Structure (SMILES)": "C[C@H](NCc1ccc(-c2ccc(C(F)(F)F)cc2)cc1)C(N)=O", "target": "FGFR3", "test": "cell-free assay, competition with immobilised ligand", "conditions": "1 µM", "quantity": "inhibition", "value": "6%"}
{"Structure (SMILES)": "CS(C)(=O)=Nc1ccc(-c2ccc(-c3nc4cc(O[C@@H]5CO[C@H]6[C@@H]5OC[C@H]6O)[nH]c4cc3F)cc2)cc1", "target": "FGFR3", "test": "enzyme activity, inhibitor", "conditions": "10 µM", "quantity": "inhibition", "value": "-11%"}
{"Structure (SMILES)": "CN(/N=C/c1ccccc1C(=O)O)c1nc(-c2ccccc2Cl)cs1", "target": "FGFR3", "test": "enzyme activity, inhibitor", "conditions": "1 µM", "quantity": "inhibition", "value": "-21.6%"}
{"Structure (SMILES)": "O=C1NC(=O)c2c1c1cc(F)c[n+]3c1c1c2c2cc(O)ccc2[n]1[Ru-4]312([N]=C=S)[S+]3CC[S+]1CC[S+]2CC3 (centres unmarked)", "target": "FGFR3", "test": "enzyme activity", "conditions": "100 nM, human enzyme, together with: 10 µM ATP", "scale": "baseline: untreated", "quantity": "remaining activity", "value": "95%"}
{"Structure (SMILES)": "CCOC(=O)[C@@H]1Cc2c(cc([N+](=O)[O-])cc2[N+](=O)[O-])[C@H](O)[C@]12C(=O)Nc1ccc(Br)cc12", "target": "FGFR3", "test": "binding, competition with immobilised ligand", "conditions": "0.1 µM", "quantity": "remaining binding", "value": "75%"}
{"Structure (SMILES)": "Nc1ccc(/C=C/C(=O)N2CCc3c(oc4c(-c5ccc(F)cc5)cc(-c5ccc(C(=O)N6CCC(F)(F)CC6)cn5)cc34)C2)cn1", "target": "FGFR3", "test": "binding, competition with immobilised ligand", "conditions": "1 µM", "quantity": "remaining binding", "value": "100%"}
{"note": "For quick reference, copied from above:"}
{"Structure (SMILES)": "CC(C)[C@H]1NC(=O)C[C@H]2/C=C/CCSSC[C@@H](NC1=O)C(=O)N[C@H](Cc1cccc3ccccc13)C(=O)NCC(=O)O2", "target": "FGFR3 (Homo sapiens, UniProt P22607, K650E)", "test": "enzyme activity, inhibitor", "conditions": "10 µM", "quantity": "inhibition", "value": "11.4%"}
